Results gathered from unrelated publications.
Compare with care: the assays were run in different laboratories. ± gives the spread as reported.
Rhomboid protease AarA: Rhomboid protease AarA (Providencia stuartii, UniProt P46116)
Sequence of UniProt P46116 (whole entry, looked up): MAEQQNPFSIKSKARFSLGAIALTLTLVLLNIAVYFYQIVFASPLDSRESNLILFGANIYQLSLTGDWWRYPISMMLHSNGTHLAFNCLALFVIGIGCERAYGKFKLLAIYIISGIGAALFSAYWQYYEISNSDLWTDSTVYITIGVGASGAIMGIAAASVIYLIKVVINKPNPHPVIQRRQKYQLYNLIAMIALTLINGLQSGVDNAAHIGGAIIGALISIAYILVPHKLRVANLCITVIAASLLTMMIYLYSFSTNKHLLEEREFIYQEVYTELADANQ
PPARG: Peroxisome proliferator-activated receptor gamma (PPARG, Homo sapiens, UniProt P37231)
Sequence of UniProt P37231 (whole entry, looked up): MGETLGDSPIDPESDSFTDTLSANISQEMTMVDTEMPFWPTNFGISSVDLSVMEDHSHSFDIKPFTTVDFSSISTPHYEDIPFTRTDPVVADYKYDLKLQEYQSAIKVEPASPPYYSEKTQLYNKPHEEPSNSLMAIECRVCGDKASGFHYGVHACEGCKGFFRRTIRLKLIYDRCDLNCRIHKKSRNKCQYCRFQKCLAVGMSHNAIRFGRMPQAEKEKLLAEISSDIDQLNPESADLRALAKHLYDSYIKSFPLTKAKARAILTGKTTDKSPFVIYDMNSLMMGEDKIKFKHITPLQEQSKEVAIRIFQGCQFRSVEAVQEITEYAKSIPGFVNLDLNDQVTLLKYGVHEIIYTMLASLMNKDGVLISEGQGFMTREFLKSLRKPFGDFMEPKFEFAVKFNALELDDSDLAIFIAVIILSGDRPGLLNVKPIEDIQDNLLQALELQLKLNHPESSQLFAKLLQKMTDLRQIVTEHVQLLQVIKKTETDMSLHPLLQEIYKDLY
PPARG ligand-binding domain: Peroxisome proliferator-activated receptor gamma, ligand-binding domain (PPARG, Homo sapiens, UniProt P37231)
Sequence of UniProt P43358 (whole entry, looked up): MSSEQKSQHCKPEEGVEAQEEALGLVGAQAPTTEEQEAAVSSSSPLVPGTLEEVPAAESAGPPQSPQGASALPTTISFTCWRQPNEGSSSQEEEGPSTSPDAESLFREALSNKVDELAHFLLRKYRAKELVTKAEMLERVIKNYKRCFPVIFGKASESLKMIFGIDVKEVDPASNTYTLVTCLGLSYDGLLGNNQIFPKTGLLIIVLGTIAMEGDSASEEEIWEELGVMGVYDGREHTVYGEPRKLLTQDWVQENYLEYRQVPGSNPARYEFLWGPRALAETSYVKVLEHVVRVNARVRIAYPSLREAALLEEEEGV
Sequence of UniProt Q9Y6E0 (whole entry, looked up): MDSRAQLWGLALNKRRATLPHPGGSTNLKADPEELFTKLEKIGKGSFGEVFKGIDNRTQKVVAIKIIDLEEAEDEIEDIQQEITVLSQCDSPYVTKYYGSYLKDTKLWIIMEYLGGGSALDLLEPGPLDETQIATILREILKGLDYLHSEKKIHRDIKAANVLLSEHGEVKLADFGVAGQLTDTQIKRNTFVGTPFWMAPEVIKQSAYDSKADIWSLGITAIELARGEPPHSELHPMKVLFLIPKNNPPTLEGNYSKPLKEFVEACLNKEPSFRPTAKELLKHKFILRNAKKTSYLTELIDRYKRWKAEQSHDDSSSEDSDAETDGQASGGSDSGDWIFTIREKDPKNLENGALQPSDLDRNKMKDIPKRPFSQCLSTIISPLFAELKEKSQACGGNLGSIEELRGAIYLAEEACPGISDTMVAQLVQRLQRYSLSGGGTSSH
Sequence of UniProt P08173 (whole entry, looked up): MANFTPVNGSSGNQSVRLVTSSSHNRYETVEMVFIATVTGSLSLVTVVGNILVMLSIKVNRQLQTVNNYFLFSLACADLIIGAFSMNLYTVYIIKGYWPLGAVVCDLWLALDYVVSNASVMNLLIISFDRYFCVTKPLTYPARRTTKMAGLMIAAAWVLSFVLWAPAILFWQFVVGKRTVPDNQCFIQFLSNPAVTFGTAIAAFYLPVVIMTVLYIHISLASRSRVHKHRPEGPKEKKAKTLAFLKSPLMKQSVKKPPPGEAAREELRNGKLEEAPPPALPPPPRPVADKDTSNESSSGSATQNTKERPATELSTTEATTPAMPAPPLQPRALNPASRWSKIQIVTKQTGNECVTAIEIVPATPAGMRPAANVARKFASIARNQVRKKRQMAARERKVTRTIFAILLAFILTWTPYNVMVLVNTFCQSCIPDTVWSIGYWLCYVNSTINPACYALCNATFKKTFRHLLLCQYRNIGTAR
Sequence of UniProt Q13547 (whole entry, looked up): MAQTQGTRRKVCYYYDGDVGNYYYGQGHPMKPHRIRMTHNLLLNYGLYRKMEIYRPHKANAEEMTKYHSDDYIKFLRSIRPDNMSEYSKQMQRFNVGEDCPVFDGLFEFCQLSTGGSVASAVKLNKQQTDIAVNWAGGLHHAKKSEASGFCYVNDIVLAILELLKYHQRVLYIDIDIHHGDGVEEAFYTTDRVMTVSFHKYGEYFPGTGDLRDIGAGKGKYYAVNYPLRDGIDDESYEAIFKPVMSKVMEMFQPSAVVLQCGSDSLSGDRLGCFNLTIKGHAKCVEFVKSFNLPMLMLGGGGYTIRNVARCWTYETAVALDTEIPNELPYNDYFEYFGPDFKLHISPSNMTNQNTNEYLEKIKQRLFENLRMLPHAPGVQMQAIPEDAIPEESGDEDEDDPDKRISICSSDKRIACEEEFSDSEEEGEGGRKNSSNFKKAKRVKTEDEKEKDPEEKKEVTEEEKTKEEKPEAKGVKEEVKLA
Sequence of UniProt Q7RTX0 (whole entry, unmodified, looked up): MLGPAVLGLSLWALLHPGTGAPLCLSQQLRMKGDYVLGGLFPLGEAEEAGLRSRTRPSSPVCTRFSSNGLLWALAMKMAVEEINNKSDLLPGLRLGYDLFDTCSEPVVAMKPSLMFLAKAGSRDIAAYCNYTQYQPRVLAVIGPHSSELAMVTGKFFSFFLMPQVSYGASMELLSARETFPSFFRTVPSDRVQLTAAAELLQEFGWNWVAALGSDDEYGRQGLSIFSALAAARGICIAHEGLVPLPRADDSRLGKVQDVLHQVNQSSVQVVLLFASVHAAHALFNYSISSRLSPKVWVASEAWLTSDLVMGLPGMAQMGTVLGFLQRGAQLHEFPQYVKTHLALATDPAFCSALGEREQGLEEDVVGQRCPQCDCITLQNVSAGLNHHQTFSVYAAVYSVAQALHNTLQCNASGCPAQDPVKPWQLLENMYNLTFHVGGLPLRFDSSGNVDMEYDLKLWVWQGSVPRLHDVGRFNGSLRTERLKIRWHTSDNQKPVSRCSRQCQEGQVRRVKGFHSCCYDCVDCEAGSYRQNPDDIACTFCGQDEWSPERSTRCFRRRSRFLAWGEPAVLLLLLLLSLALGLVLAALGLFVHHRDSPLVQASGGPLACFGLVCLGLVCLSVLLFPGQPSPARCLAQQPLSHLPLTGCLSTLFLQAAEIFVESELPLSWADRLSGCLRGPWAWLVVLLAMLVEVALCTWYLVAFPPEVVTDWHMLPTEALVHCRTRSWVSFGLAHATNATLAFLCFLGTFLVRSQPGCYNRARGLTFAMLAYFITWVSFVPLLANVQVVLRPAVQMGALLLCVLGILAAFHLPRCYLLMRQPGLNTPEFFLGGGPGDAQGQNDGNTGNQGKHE

NCCOc1ccccc1NC(=O)C(C(F)(F)F)C(F)(F)F  IC50 (Rhomboid protease AarA; enzyme activity, inhibitor, fluorescence): 68000 nM
Cc1ncc2c(n1)CN(C(=O)Nc1nc(-c3cccs3)ccc1N)C2  IC50 (Lysine-specific histone demethylase 1A, with CoREST (KDM1A, Homo sapiens, UniProt O60341); demethylase activity, inhibitor; LSD1-CoREST complex): > 150000 nM
Cc1c(Cc2cc(Cl)cc(OC(C)C(=O)O)c2)c2ccc(C(=O)NC(C)c3ccc(C(C)(C)C)cc3)cc2n1C(C)C (stereo not shown)  IC50 (PPARG; ligand displacement, TR-FRET): 220 nM
Cc1ccc2nc(C)n(/N=C/c3ccc(C(=O)O)cc3)c(=O)c2c1  IC50 (collagenase; enzyme activity, inhibitor; together with: casein substrate): 18.5 ± 1.56 µg/mL
CC(C)(Oc1ccc(Cl)cc1)C(=O)O  IC50 (Taste receptor type 1 member 3, with T1R1 (TAS1R3, Homo sapiens, UniProt Q7RTX0, Q794N)): 460000 nM
CC[C@H](C)[C@@H]1NC(=O)[C@H](Cc2ccc(O)cc2)NC(=O)CSC[C@@H](C(N)=O)NC(=O)[C@H](CC(N)=O)NC(=O)[C@H](Cc2c[nH]cn2)NC(=O)[C@H](Cc2ccc(O)cc2)NC(=O)[C@H](CC(=O)O)NC(=O)[C@H](Cc2ccc(Cl)cc2)NC(=O)[C@H](CC(C)C)NC(=O)[C@H](CCCNC(=N)N)NC1=O  IC50 (Melanoma-associated antigen 4, MAGE homology domain (Homo sapiens, UniProt P43358); binding, inhibitor, TR-FRET displacement; together with: Alexa647-MTP-1): 12.2 ± 3.4 nM
Cc1c(Cc2ccc(Cl)c(O[C@@H](C)C(=O)O)c2)c2ccc(C(=O)N[C@@H](C)c3ccc(C(C)(C)C)cc3)cc2n1C  IC50 (PPARG; ligand displacement, TR-FRET): 0.72 nM
O=C(CCNC(=O)CNC(=O)CC(c1ccccc1)(c1ccccc1)c1ccccc1)NC[C@@H]1CCCN(Cc2ccc3cc(F)ccc3c2)C1  IC50 (Muscarinic acetylcholine receptor M4 (CHRM4, Homo sapiens, UniProt P08173); ligand displacement, radioligand; cell membranes): > 30000 nM
COC(=O)CCCNC(=O)c1ccc(Nc2ncc(F)c(-c3cc(F)c4nc(C)n(C(C)C)c4c3)n2)cc1  IC50 (Histone deacetylase 1 (HDAC1, Homo sapiens, UniProt Q13547); enzyme activity, inhibitor): > 1000 nM
Cc1nc2cc(C(=O)N[C@@H](C)c3ccc(C(C)(C)C)cc3)ccc2n1Cc1cccc(OC(C)(C)C(=O)O)c1  IC50 (PPARG; ligand displacement, TR-FRET): 12 nM
O=C(NCC(F)c1ccc(Cl)cc1Cl)c1cc(Cl)nnc1Oc1cccc(C2CC2)c1 (stereo not shown)  IC50 (serine palmitoyltransferase (Zymoseptoria tritici, UniProt F9X349+F9XMN6)): 343 ± 12 nM
Cc1c(Cc2ccc(OC(C)C(=O)O)cc2)c2ccc(C(=O)N[C@@H](C)c3cccc(C(C)(C)C)c3)cc2n1C (stereo partly shown)  IC50 (PPARG ligand-binding domain; reporter gene, luciferase reporter; HEK293T, Gal4-PPARγ LBD): 7870 nM
C[C@H](NC(=O)C(C(F)(F)F)C(F)(F)F)c1ccccc1  IC50 (Rhomboid protease AarA; enzyme activity, inhibitor, fluorescence): 17000 nM
Cc1nn(-c2cccc(N)c2)c(=O)c2cnc(Nc3ccc(N4CCNCC4)cc3)nc12  IC50 (Serine/threonine-protein kinase 24 (STK24, Homo sapiens, UniProt Q9Y6E0); enzyme activity, inhibitor): 3110 nM
CC(C)CCOc1ccccc1NC(=O)C(C(F)(F)F)C(F)(F)F  IC50 (Rhomboid protease AarA; enzyme activity, inhibitor, fluorescence): 2200 nM
Cc1c(Cc2ccc(OC(C)(C)C(=O)O)cc2)c2ccc(C(=O)N[C@@H](C)c3ccc(C(C)C)cc3)cc2n1C  IC50 (PPARG ligand-binding domain; reporter gene, luciferase reporter; HEK293T, Gal4-PPARγ LBD): 1590 nM
